Results from different studies.
Numbers after ± are the reported error.
uncharacterized protein: uncharacterized protein (Streptococcus mutans serotype c, UniProt Q8DS94)
histidine kinase ComD: histidine kinase ComD (Streptococcus pneumoniae serotype 2, UniProt A0A0H2ZM50)
rhlR: HTH-type quorum-sensing regulator RhlR (rhlR, Pseudomonas aeruginosa, UniProt P54292)
Chain of UniProt P54292 (whole entry, looked up): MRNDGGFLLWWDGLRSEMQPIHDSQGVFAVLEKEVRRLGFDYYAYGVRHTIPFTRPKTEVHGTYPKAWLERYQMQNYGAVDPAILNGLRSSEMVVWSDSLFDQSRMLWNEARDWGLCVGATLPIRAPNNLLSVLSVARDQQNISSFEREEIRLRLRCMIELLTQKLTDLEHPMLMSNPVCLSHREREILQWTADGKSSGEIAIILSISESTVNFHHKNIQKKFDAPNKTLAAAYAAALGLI
Chain of UniProt P28335 (whole entry, looked up): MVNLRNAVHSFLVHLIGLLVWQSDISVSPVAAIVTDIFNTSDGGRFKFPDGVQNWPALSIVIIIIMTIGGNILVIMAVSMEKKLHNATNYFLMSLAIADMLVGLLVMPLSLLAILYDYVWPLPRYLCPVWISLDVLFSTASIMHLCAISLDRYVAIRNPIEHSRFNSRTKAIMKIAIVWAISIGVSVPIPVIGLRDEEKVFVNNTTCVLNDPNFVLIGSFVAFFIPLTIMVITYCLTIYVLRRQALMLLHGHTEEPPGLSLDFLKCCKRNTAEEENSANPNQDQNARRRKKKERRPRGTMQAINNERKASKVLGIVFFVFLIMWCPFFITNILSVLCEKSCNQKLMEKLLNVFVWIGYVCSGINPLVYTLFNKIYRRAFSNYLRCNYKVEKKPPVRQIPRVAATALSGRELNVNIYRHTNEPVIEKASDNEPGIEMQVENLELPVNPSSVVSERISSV
Chain of UniProt Q9VNB5 (whole entry, looked up): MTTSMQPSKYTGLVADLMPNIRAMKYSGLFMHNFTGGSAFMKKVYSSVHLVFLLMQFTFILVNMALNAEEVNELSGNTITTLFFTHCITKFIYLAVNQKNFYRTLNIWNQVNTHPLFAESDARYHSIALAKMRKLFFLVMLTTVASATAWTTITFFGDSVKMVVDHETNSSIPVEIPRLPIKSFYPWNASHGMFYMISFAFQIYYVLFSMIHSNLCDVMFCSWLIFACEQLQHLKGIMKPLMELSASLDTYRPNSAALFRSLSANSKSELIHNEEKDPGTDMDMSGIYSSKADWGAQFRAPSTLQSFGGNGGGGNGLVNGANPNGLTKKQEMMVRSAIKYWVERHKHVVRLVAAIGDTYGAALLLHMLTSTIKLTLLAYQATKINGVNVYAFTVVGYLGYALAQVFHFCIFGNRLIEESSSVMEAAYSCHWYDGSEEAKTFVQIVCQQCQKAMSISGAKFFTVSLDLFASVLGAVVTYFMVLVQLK
Chain of UniProt P50391 (whole entry, looked up): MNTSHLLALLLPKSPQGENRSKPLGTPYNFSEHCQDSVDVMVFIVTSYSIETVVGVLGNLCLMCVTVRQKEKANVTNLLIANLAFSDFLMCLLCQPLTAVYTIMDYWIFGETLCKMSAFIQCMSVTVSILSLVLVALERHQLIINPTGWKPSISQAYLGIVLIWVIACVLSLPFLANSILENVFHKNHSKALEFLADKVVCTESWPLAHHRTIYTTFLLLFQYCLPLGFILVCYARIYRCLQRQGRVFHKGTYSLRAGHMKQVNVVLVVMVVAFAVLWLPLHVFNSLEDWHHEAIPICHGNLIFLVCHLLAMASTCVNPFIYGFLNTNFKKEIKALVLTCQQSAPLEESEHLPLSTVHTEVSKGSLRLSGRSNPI
Chain of UniProt P32245 (whole entry, unmodified, looked up): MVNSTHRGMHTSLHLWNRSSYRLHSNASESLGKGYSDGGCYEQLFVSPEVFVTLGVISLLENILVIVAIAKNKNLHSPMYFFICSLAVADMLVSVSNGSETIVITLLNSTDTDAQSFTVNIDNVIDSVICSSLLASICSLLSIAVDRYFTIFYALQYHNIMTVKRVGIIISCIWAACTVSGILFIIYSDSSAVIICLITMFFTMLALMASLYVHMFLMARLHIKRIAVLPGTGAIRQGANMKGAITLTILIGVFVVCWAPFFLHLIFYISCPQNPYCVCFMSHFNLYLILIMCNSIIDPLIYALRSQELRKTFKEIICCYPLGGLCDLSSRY
Chain of UniProt P28336 (whole entry, looked up): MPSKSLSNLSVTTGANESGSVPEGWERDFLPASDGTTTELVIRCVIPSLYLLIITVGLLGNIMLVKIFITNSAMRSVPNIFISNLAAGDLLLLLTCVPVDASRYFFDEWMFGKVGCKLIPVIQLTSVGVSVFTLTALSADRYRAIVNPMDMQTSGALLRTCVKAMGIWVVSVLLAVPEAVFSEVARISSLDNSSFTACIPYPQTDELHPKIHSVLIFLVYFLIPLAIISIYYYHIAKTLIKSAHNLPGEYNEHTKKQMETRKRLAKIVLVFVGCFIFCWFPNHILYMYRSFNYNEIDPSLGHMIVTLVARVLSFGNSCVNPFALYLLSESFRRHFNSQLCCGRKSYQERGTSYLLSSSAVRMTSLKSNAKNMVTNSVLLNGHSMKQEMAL

CC(C)C[C@H](NC(=O)[C@H](C)NC(=O)[C@H](CCC(N)=O)NC(=O)[C@@H](NC(=O)[C@H](Cc1ccccc1)NC(=O)[C@H](CO)NC(=O)[C@H](CCCNC(=N)N)NC(=O)[C@H](CC(N)=O)NC(=O)[C@H](Cc1ccccc1)NC(=O)[C@H](CC(C)C)NC(=O)[C@H](CCCNC(=N)N)NC(=O)[C@H](Cc1ccccc1)NC(=O)[C@H](Cc1ccccc1)NC(=O)[C@@H](NC(=O)[C@H](CO)NC(=O)[C@H](CC(C)C)NC(=O)[C@@H](CO)NC(=O)CNC(=O)[C@@H](N)CO)[C@@H](C)O)[C@@H](C)O)C(=O)NCC(=O)N[C@@H](CCCCN)C(=O)O  EC50 (uncharacterized protein; Streptococcus mutans): 160 nM
CN1CCC[C@H]1c1cncc(C=O)c1  EC50 (Acetylcholine receptor subunit alpha-type acr-16 (Ascaris suum, UniProt F1KYJ9); ion current, agonist, two-electrode voltage clamp; oocytes): 11500 nM
CC[C@H](C)[C@H](NC(=O)[C@H](Cc1ccccc1)NC(=O)[C@H](Cc1c[nH]cn1)NC(=O)[C@@H](NC(=O)[C@H](CCC(N)=O)NC(=O)[C@H](CCCNC(=N)N)NC(=O)[C@@H](NC(=O)[C@@H](N)CCC(=O)O)[C@@H](C)CC)[C@@H](C)O)C(=O)N[C@@H](Cc1ccccc1)C(=O)N[C@@H](Cc1ccccc1)C(=O)N[C@@H](Cc1ccccc1)C(=O)N[C@@H](Cc1ccccc1)C(=O)N[C@@H](Cc1ccccc1)C(=O)N[C@@H](CCCCN)C(=O)N[C@@H](CCCNC(=N)N)C(=O)N[C@@H](CCCNC(=N)N)C(=O)O  EC50 (histidine kinase ComD; reporter gene, agonist; Streptococcus pneumoniae, D39 comX::lacZ; 30 min, pH 7.3, 37 °C): > 10000 nM
CC(C)C[C@H](NC(=O)[C@H](C)NC(=O)[C@H](CCC(N)=O)NC(=O)[C@@H](NC(=O)[C@H](Cc1ccccc1)NC(=O)[C@H](CO)NC(=O)[C@H](CCCNC(=N)N)NC(=O)[C@H](CC(N)=O)NC(=O)[C@H](Cc1ccccc1)NC(=O)[C@H](CC(C)C)NC(=O)[C@H](CCCNC(=N)N)NC(=O)[C@H](Cc1ccccc1)NC(=O)[C@H](Cc1ccccc1)NC(=O)[C@@H](NC(=O)[C@H](CO)NC(=O)[C@H](CC(C)C)NC(=O)[C@@H](N)CO)[C@@H](C)O)[C@@H](C)O)C(=O)NCC(=O)N[C@@H](CCCCN)C(=O)O  EC50 (uncharacterized protein; Streptococcus mutans): 120 nM
CC(=O)N[C@H](CCCNC(=N)N)C(=O)N[C@@H](Cc1ccc(O)cc1)C(=O)N[C@@H](CCCNC(=N)NC(=O)NCCCCN)C(=O)N[C@@H](CC(C)C)C(=O)N[C@@H](CCCNC(=N)N)C(=O)N[C@@H](Cc1ccc(O)cc1)C(N)=O  EC50 (NPY4R (Homo sapiens, UniProt P50391); calcium signal, agonist): 756 nM
O=C(N[C@H]1CCOC1=O)C1CCCC1  EC50 (rhlR; reporter gene, agonist; Escherichia coli reporter strain): 2800 nM
C=Cc1ccc(NC(=O)CSc2nnc(-c3cccnc3)n2CC)cc1  EC50 (Orco (Drosophila melanogaster, UniProt Q9VNB5); calcium mobilization, agonist; HEK293 expressing Orco): 102000 nM
CC[C@H](C)[C@H](NC(=O)[C@H](Cc1c[nH]cn1)NC(=O)[C@@H](NC(=O)[C@H](CCC(N)=O)NC(=O)[C@H](CCCNC(=N)N)NC(=O)[C@@H](NC(=O)[C@@H](N)CCC(=O)O)[C@@H](C)CC)[C@@H](C)O)C(=O)N[C@@H](Cc1ccccc1)C(=O)N[C@@H](Cc1ccccc1)C(=O)N[C@@H](Cc1ccccc1)C(=O)N[C@@H](Cc1ccccc1)C(=O)N[C@@H](Cc1ccccc1)C(=O)N[C@@H](Cc1ccccc1)C(=O)N[C@@H](CCCCN)C(=O)N[C@@H](CCCNC(=N)N)C(=O)N[C@@H](CCCNC(=N)N)C(=O)O  EC50 (histidine kinase ComD; reporter gene, agonist; Streptococcus pneumoniae, D39 comX::lacZ; 30 min, pH 7.3, 37 °C): > 10000 nM
O=C(NC1CCCC1=O)C1CCC1 (stereo not shown)  EC50 (rhlR; reporter gene, agonist): 5940 nM
CC(=O)N[C@@H](CCCNC(=N)N)C(=O)N[C@H](Cc1ccc(Cl)cc1)C(=O)N1Cc2ccccc2C[C@H]1C(=O)N[C@H](Cc1ccc([N+](=O)[O-])cc1)C(N)=O  EC50 (MC4R (Homo sapiens, UniProt P32245, L106P); reporter gene, agonist): ~3 nM
CSCC[C@H](NC(=O)[C@H](CC(C)C)NC(=O)[C@H](CO)NC(=O)CNC(=O)[C@@H](NC(=O)[C@H](C)NC(=O)[C@H](Cc1c[nH]c2ccccc12)NC(=O)[C@H](CC(C)C)NC(=O)[C@@H]1CCC(=O)N1)C(C)C)C(N)=O  EC50 (NMBR (Homo sapiens, UniProt P28336); inositol phosphate generation, agonist; NCI-H1299 expressing human NMBR; 45 min, 37 °C; relative to: 1 µM neuromedin B): 12.6 ± 0.34 nM
CC[C@H](C)[C@H](NC(=O)[C@@H]1CCC(=O)N1)C(=O)N[C@H](C(=O)N[C@@H](Cc1ccccc1)C(=O)N[C@@H](CO)C(=O)N[C@@H](CCCNC(=N)N)C(=O)N[C@@H](CC(=O)O)C(=O)N[C@@H](Cc1c[nH]c2ccccc12)C(=O)N[C@@H](CO)C(=O)NCC(N)=O)[C@@H](C)O  EC50 (Adipokinetic hormone receptor (Bombyx mori, UniProt Q8T6U9)): 1070 ± 330 nM
CC[C@H](C)[C@H](NC(=O)[C@H](CCCCN)NC(=O)[C@H](CC(C)C)NC(=O)[C@H](Cc1ccccc1)NC(=O)[C@H](Cc1ccccc1)NC(=O)CNC(=O)[C@@H]1CCCN1C(=O)[C@H](CO)NC(=O)[C@H](CO)NC(=O)[C@H](CC(=O)O)NC(=O)[C@@H](N)CC(=O)O)C(=O)N[C@H](C(=O)N[C@@H](CCCCN)C(=O)N[C@@H](CC(N)=O)C(=O)N[C@H](C(=O)N1CCC[C@H]1C(=O)N[C@@H](CCCNC(=N)N)C(=O)N[C@@H](CC(C)C)C(N)=O)C(C)C)[C@@H](C)O  EC50 (Ecdysis triggering hormone receptor A (Aedes aegypti, UniProt A7J264)): ~8 nM
CC(C)C[C@H](NC(=O)[C@H](CO)NC(=O)CNC(=O)[C@@H](N)CO)C(=O)N[C@@H](CO)C(=O)N[C@H](C(=O)N[C@@H](Cc1ccccc1)C(=O)N[C@@H](Cc1ccccc1)C(=O)N[C@@H](CCCNC(=N)N)C(=O)N[C@@H](CC(C)C)C(=O)N[C@@H](Cc1ccccc1)C(=O)N[C@@H](CC(N)=O)C(=O)N[C@@H](CCCNC(=N)N)C(=O)N[C@@H](CO)C(=O)N[C@@H](Cc1ccccc1)C(=O)N[C@@H](C(=O)N[C@@H](CCC(N)=O)C(=O)N[C@@H](C)C(=O)O)[C@H](C)O)[C@@H](C)O  EC50 (uncharacterized protein; Streptococcus mutans): > 1000 nM
O=C(NC1CCSC1=O)C1CCC1 (stereo not shown)  EC50 (rhlR; reporter gene, agonist): 1720 nM
NCC1CC1c1cc(O)ccc1OCC1CC1 (single isomer, unassigned; (-))  EC50 (HTR2C (Homo sapiens, UniProt P28335); calcium signal, agonist): 361 nM
